Results collected from several papers.
Numbered parts are unrelated; each lists some results of a single study.

Block 1
Target: Sal-like protein 4, full length isoform A (SALL4, Homo sapiens, UniProt Q9UJQ4, residues 1-1053)
UniProt Q9UJQ4, sequence (whole entry, looked up): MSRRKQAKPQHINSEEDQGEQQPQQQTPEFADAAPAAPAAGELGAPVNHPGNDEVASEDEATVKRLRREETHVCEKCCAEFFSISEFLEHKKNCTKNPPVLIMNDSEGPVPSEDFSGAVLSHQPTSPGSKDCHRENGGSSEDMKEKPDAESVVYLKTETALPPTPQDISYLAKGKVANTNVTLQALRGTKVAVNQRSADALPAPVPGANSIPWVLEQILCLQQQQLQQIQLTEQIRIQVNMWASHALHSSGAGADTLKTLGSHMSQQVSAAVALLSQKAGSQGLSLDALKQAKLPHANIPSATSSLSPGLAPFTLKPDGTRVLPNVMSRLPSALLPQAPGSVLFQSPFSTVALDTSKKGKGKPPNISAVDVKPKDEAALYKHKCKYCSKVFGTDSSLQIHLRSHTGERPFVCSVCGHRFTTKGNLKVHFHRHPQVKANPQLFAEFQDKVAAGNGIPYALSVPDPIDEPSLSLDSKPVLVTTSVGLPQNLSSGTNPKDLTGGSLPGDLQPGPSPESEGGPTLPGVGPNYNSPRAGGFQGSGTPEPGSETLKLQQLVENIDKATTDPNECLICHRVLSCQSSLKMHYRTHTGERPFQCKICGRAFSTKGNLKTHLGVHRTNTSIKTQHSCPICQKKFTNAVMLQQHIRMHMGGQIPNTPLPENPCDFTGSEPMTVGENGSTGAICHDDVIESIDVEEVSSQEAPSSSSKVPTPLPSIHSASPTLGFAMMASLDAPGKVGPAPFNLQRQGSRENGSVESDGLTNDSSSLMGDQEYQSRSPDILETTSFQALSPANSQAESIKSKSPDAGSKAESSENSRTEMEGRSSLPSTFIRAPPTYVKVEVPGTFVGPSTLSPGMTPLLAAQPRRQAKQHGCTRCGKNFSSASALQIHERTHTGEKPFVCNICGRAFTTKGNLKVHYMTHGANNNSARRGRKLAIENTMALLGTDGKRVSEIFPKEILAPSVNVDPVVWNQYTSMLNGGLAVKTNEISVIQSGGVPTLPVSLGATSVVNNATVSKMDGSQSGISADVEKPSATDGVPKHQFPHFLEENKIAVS
Technique: universal PBM
Form: double-stranded DNA, one strand shown
Matrix: in vitro
Concentration: 600 nM
Setting: 8-mer, flanks averaged, mean of replicates
Reading: higher = stronger binding
| Oligonucleotide | E-score |
| --- | --- |
| CAAACATA | 0.224 |
| GCTTAAGA | -0.02 |
| GTGACTCA | -0.0964 |
| AGCTTCTG | -0.201 |

Block 2
Target: Histone acetyltransferase KAT6A, winged helix 2, GST fusion (KAT6A, Homo sapiens, UniProt Q92794, residues 85-181)
Technique: protein binding microarray
Form: double-stranded DNA, one strand shown
Matrix: in vitro
Concentration: not given
Setting: 8-mer, flanks averaged, mean of 2 arrays, mostly near background
Relative to: not given
Reading: higher = stronger binding
Residues (chain): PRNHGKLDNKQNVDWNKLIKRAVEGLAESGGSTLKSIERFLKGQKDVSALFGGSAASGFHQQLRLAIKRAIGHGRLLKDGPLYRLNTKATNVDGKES
| Oligonucleotide | E-score |
| --- | --- |
| CATGATCC | -0.116 |
| GAGACTAC | -0.142 |
| TGCTCAAA | 0.124 |

Block 3
Target: Ras GTPase-activating protein-binding protein 1, RRM domain (G3BP1, Homo sapiens, UniProt Q13283)
UniProt Q13283, sequence (whole entry, looked up): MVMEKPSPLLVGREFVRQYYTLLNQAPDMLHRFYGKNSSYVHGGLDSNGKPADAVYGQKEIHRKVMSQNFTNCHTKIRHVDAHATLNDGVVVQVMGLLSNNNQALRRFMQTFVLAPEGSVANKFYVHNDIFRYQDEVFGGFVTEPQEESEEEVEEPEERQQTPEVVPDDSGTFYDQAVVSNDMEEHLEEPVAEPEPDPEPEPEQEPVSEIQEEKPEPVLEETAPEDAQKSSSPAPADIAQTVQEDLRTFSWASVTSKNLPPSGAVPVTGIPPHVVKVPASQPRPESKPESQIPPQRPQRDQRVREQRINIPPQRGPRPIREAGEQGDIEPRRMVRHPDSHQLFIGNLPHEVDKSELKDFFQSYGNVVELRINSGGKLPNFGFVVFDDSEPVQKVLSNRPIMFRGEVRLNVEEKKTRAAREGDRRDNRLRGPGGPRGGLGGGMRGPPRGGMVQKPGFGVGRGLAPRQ
Technique: RNA Bind-n-Seq
Form: RNA
Matrix: in vitro
Concentration: 1 µM
Setting: whole 134-nt RNA, ends assumed
Added: 150 mM KCl
Relative to: input library
Reading: higher = stronger binding
| Oligonucleotide | log2 enrichment |
| --- | --- |
| GGGAGUUCUACAGUCCGACGAUCGUCCUGUGCUACACAUCGUAUGUACCGAAUCGGGGAAAGGGGUGGGGAAAAAAAGGGGAAAGUAUUAUGUUACGCCGUUCGGAUCUGCACUGGAAUUCUCGGGUGUCAAGG | 0.784 |
| GGGAGUUCUACAGUCCGACGAUCUCCUCAAGUCCUGUGCUACACAUCGUAUGUACCGAAUCGGUGGAAAGGUGGAAAGUAUUAUGUUACGCCGUUCGGAUCUGCACUUCCAGCUGGAAUUCUCGGGUGUCAAGG | -0.112 |
| GGGAGUUCUACAGUCCGACGAUCCUCAAGUCCUGUGCUACACAUCGUAUGUACCGAAUCGGUGGUUUUUGGUUUGGAAAGUAUUAUGUUACGCCGUUCGGAUCUGCACUUCCAUGGAAUUCUCGGGUGUCAAGG | -0.283 |
| GGGAGUUCUACAGUCCGACGAUCUCCUGUGCUACACAUCGUAUGUACCGAAUCGGGUUUUUGGGUUUUUUUGGGAAAAAGGGAAAGUAUUAUGUUACGCCGUUCGGAUCUGCAUGGAAUUCUCGGGUGUCAAGG | 0.0527 |

Other studies, line by line
| Molecule | target | assay | system | conditions | how to read | endpoint | result |
| --- | --- | --- | --- | --- | --- | --- | --- |
| PhoQ, residues 284 288 289 292 302 303 NLSRDF | PhoP, residues 12 14 15 18 19 NFCKL (Escherichia coli, UniProt P23836) | Sort-seq, refers to: YFP reporter | E. coli | PhoQ-PhoP variant library, added: 10 µM Mg2+ | relative to: high Mg2+ state, higher = stronger signaling | fold induction | 3.73 |

A few entries again (block 3):
| Oligonucleotide | log2 enrichment |
| --- | --- |
| GGGAGUUCUACAGUCCGACGAUCCUCAAGUCCUGUGCUACACAUCGUAUGUACCGAAUCGGUGGUUUUUGGUUUGGAAAGUAUUAUGUUACGCCGUUCGGAUCUGCACUUCCAUGGAAUUCUCGGGUGUCAAGG | -0.283 |
| GGGAGUUCUACAGUCCGACGAUCUCCUGUGCUACACAUCGUAUGUACCGAAUCGGGUUUUUGGGUUUUUUUGGGAAAAAGGGAAAGUAUUAUGUUACGCCGUUCGGAUCUGCAUGGAAUUCUCGGGUGUCAAGG | 0.0527 |
